Measured values from different studies.
Every numbered part comes from another study and shows a few of its results, in no order. Values joined by “and” are separate records of one study, mostly repeats; a detail may differ.
Chain of UniProt Q9H3Y6 (whole entry, looked up): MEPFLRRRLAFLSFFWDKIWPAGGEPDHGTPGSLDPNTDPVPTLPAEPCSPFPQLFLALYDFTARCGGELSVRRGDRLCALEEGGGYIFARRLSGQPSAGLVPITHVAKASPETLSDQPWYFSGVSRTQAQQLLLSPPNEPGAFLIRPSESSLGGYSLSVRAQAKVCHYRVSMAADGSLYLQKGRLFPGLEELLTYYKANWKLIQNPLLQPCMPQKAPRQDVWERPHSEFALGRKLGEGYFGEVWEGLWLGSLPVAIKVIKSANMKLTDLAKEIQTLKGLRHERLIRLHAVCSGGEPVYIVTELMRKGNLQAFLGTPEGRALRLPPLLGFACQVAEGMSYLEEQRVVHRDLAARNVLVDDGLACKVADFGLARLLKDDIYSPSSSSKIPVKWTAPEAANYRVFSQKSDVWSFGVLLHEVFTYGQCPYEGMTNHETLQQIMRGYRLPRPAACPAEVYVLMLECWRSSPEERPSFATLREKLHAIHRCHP
Chain of UniProt O95819 (whole entry, looked up): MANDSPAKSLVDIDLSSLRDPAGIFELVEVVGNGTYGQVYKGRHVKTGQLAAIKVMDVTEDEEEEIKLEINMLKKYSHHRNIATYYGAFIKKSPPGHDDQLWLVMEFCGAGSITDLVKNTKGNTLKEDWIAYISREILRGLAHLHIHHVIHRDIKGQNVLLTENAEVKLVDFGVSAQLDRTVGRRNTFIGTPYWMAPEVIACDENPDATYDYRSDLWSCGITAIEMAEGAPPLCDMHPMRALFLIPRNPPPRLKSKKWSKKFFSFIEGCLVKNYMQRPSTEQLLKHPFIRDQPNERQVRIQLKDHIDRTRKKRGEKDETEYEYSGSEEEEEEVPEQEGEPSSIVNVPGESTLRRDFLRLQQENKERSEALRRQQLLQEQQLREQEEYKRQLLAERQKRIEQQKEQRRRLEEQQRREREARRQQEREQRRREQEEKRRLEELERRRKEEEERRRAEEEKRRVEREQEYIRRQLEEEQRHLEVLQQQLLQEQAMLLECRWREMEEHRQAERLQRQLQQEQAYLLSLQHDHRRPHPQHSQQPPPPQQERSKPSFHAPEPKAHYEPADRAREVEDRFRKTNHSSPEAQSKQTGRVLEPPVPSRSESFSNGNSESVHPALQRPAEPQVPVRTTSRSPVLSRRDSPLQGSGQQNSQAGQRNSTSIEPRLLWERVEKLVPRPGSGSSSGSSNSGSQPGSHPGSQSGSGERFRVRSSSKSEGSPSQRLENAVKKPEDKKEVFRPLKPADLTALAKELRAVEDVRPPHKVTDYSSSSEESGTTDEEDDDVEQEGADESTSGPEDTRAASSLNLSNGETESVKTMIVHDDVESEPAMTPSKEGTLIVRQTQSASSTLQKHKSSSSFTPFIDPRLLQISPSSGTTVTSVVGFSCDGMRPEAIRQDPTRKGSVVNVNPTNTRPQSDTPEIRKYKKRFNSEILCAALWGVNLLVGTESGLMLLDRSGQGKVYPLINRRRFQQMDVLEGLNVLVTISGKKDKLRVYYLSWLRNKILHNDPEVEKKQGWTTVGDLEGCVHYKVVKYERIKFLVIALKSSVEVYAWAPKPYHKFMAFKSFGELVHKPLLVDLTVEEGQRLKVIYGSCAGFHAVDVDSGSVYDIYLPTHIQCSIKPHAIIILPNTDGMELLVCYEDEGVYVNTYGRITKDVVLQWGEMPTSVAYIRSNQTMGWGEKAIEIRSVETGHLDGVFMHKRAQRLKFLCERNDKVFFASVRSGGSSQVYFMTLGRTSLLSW
Chain of UniProt Q8N5S9 (whole entry, looked up): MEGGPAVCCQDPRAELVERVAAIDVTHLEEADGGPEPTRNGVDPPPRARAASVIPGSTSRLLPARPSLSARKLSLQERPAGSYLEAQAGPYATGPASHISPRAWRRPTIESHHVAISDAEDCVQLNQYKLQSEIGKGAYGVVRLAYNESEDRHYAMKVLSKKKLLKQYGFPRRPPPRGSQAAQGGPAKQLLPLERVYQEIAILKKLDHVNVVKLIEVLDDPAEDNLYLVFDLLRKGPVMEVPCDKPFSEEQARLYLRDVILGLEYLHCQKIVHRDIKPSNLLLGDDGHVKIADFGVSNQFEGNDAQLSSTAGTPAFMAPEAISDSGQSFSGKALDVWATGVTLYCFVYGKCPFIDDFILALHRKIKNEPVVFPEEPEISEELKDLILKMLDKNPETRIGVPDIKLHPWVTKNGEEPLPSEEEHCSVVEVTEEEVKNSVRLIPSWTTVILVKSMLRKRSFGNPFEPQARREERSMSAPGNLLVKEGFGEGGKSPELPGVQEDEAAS
Chain of UniProt Q15418 (whole entry, looked up): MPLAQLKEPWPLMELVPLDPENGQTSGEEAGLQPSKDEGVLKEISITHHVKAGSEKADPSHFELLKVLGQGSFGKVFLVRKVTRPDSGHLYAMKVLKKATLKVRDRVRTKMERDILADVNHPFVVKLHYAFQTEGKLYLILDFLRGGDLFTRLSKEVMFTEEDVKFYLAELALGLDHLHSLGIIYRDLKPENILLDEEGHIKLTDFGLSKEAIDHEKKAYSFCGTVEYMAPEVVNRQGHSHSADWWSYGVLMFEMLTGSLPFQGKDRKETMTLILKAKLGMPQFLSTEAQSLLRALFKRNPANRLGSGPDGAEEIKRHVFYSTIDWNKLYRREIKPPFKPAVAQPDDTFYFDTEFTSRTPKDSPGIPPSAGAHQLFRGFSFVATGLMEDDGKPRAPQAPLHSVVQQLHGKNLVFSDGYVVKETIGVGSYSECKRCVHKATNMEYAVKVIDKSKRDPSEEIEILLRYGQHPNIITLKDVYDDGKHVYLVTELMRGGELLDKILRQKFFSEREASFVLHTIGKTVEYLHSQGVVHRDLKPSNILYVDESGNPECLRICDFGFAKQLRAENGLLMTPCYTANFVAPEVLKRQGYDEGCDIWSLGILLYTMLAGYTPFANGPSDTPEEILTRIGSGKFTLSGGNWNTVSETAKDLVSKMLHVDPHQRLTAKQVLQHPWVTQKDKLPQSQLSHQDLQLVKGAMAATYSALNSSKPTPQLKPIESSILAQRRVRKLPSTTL
Chain of UniProt P53778 (whole entry, looked up): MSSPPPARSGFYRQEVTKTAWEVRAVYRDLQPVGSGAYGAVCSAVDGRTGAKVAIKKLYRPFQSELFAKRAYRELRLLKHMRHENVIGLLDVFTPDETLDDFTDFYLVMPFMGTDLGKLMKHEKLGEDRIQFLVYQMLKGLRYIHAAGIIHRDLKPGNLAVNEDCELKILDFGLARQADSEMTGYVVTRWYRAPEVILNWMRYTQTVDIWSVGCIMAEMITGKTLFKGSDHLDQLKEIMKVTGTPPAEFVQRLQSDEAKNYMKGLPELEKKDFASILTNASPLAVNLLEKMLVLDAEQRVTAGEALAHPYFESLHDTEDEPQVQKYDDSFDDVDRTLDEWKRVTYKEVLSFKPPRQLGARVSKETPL
Chain of UniProt Q13237 (whole entry, looked up): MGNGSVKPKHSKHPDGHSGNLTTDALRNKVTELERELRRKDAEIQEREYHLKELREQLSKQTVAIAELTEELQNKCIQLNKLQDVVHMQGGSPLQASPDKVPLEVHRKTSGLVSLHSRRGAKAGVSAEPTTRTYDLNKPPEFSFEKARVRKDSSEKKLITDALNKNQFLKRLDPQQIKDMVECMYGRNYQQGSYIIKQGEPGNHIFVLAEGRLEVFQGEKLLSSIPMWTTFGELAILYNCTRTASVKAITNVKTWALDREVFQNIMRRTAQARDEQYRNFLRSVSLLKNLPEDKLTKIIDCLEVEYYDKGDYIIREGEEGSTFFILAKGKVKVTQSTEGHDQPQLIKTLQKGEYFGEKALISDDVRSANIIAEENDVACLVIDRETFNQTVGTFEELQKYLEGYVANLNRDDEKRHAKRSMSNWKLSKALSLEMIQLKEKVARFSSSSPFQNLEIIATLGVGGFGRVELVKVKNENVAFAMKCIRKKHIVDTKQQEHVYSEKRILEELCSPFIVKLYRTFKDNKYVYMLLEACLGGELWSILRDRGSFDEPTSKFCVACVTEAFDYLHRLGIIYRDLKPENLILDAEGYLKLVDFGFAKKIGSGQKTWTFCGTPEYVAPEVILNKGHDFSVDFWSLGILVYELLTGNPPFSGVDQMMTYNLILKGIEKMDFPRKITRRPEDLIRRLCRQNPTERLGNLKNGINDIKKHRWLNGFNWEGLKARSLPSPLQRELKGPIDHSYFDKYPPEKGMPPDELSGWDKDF

Block 1
Structure (SMILES): O=C1CCC(N2Cc3cc(C4CCN(Cc5ccccc5)CC4)ccc3C2=O)C(=O)N1 (centres unmarked)
Action: degrader
Method: HiBiT
DNA-binding protein Ikaros: DNA-binding protein Ikaros (Homo sapiens, UniProt Q13422)
Chain of UniProt Q13422 (whole entry, looked up): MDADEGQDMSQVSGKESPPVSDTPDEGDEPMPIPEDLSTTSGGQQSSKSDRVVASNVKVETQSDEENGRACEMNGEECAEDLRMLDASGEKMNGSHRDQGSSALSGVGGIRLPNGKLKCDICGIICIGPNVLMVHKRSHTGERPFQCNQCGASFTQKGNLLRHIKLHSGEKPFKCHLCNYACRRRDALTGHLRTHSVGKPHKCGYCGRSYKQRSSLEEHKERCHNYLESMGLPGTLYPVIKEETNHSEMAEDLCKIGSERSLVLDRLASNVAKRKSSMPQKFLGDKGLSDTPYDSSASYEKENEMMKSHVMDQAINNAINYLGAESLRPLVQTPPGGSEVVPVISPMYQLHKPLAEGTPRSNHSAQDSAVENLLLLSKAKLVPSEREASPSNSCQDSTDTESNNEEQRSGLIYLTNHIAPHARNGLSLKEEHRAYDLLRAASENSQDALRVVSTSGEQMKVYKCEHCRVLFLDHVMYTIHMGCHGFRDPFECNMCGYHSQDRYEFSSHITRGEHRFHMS
CSNK1A1: Casein kinase I isoform alpha (CSNK1A1, Homo sapiens, UniProt P48729)
Chain of UniProt P48729 (whole entry, looked up): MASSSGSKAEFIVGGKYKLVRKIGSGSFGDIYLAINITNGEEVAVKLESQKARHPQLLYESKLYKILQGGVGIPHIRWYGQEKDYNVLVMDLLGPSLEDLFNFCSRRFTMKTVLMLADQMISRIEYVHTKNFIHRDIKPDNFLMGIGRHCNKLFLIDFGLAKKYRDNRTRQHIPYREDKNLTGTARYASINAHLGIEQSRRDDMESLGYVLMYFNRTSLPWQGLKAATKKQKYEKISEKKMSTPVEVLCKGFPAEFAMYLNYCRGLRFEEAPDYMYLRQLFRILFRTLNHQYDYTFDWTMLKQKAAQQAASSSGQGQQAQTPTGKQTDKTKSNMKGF
| target | cell line | tested at | time | remaining protein |
| --- | --- | --- | --- | --- |
| DNA-binding protein Ikaros | HEK293 | 0.0005081 µM | 6 h | 98.3% |
| CSNK1A1 | HEK293 HiBiT-CK1α | 123.5 nM |  | 91.6% and 93.5% |
| DNA-binding protein Ikaros | HEK293 | 0.1235 µM |  | 97.1% and 94.5% |
| Sal-like protein 4 (SALL4, Homo sapiens, UniProt Q9UJQ4) | HEK293 | 0.3704 µM | 6 h | 51.7% |
| CSNK1A1 | HEK293 | 0.3704 µM | 6 h | 92.2% |

Block 2
Compound: c1ccc(N2CCN(Cc3nc4ccccc4[nH]3)CC2)nc1
Method: competition with immobilised ligand
Tested at: 1 µM
| target | read-out | remaining binding |
| --- | --- | --- |
| Ribosomal protein S6 kinase alpha-2, C-terminal kinase domain (RPS6KA2, Homo sapiens, UniProt Q15349) | binding | 100% |
| Calcium/calmodulin-dependent protein kinase kinase 1 (CAMKK1, Homo sapiens, UniProt Q8N5S9) | binding | 98% |
| Serine/threonine-protein kinase PAK 2 (PAK2, Homo sapiens, UniProt Q13177) | cell-free assay | 100% |
| cGMP-dependent protein kinase 2 (PRKG2, Homo sapiens, UniProt Q13237) | binding | 100% |
| Serine/threonine-protein kinase TAO1 (TAOK1, Homo sapiens, UniProt Q7L7X3) | binding | 100% |
| Mitogen-activated protein kinase kinase kinase kinase 4 (MAP4K4, Homo sapiens, UniProt O95819) | binding | 100% |
| Mitogen-activated protein kinase kinase kinase 4 (MAP3K4, Homo sapiens, UniProt Q9Y6R4) | binding | 100% |
| Epidermal growth factor receptor (EGFR, Homo sapiens, UniProt P00533, G719S) | cell-free assay | 91% |
| Cyclin-dependent kinase 4, with cyclin D3 (CDK4, Homo sapiens, UniProt P11802) | binding | 100% |
| Mitogen-activated protein kinase kinase kinase 6 (MAP3K6, Homo sapiens, UniProt O95382) | binding | 98% |
| Tyrosine-protein kinase Srms (SRMS, Homo sapiens, UniProt Q9H3Y6) | cell-free assay | 94% |
| Ephrin type-A receptor 5 (EPHA5, Homo sapiens, UniProt P54756) | cell-free assay | 100% |
| Mitogen-activated protein kinase 12 (MAPK12, Homo sapiens, UniProt P53778) | binding | 74% |
| Mitogen-activated protein kinase 13 (MAPK13, Homo sapiens, UniProt O15264) | binding | 100% |
| Rho-associated protein kinase 2 (ROCK2, Homo sapiens, UniProt O75116) | binding | 100% |
| Ribosomal protein S6 kinase alpha-1, C-terminal kinase domain (RPS6KA1, Homo sapiens, UniProt Q15418) | binding | 100% |
| Serine/threonine-protein kinase ICK (CILK1, Homo sapiens, UniProt Q9UPZ9) | binding | 100% |

Block 3
Organism: Sarcocystis neurona
Read-out: parasite growth
Tested at: 10 µM
Time: 96 h
Baseline: untreated
| Compound | log2 fold change |
| --- | --- |
| Cc1ccc(N(CC2=NCCN2)c2cccc(O)c2)cc1 | 0.26 |
| C=C1/C(=C\C=C2/CCC[C@]3(C)[C@@H]([C@H](C)/C=C/[C@@H](O)C4CC4)CC[C@@H]23)C[C@@H](O)C[C@@H]1O | 0.31 |
| C[C@@H]1C[C@H]2[C@@H]3CCC4=CC(=O)C=C[C@]4(C)[C@@]3(F)[C@@H](O)C[C@]2(C)[C@H]1C(=O)CO | -0.11 |
| Nc1ccn([C@@H]2O[C@H](CO)[C@@H](O)[C@@H]2O)c(=O)n1 | 0.48 |
| Cc1nc2ccc(CN(C)c3ccc(C(=O)N[C@@H](CCC(=O)O)C(=O)O)s3)cc2c(=O)[nH]1 | 0.32 |
| CCC(=O)O[C@]1(C(=O)CCl)[C@@H](C)C[C@H]2[C@@H]3CCC4=CC(=O)C=C[C@]4(C)[C@@]3(F)[C@@H](O)C[C@@]21C | -0.1 |
| CCn1cc(C(=O)O)c(=O)c2ccc(C)nc21 | 0.31 |
| CC1(C)S[C@@H]2[C@H](NC(=O)[C@H](N)c3ccc(O)cc3)C(=O)N2[C@H]1C(=O)O | 0.27 |
| COCCCOc1ccnc(C[S+]([O-])c2nc3ccccc3[nH]2)c1C (centres unmarked) | 0.44 |

Block 4
Method: logD(dd/w) and ALogP
Setting: JT method
| SMILES | lipophilic permeability efficiency |
| --- | --- |
| CC(C)C[C@@H]1NC(=O)[C@H](CC(C)C)NC(=O)[C@H](CC(C)C)NC(=O)[C@H](C(C)C)NC(=O)[C@H](C)NC(=O)[C@H](Cc2cscn2)NC(=O)[C@H](CCC(=O)N2CCCC2)NC1=O | 2.06 |
| CC(C)C[C@@H]1NC(=O)[C@H](CC(C)C)NC(=O)[C@@H](C(C)C)NC(=O)[C@H](Cc2cscn2)NC(=O)[C@@H](Cc2cscn2)NC(=O)[C@H](Cc2cscn2)NC(=O)[C@H](CCC(=O)N2CCCC2)NC1=O | 1.59 |
| CC(C)C[C@@H]1NC(=O)[C@H](CC(C)C)NC(=O)[C@H](CC(C)C)NC(=O)[C@@H](C)NC(=O)[C@H](C(C)C)NC(=O)[C@H](C)NC(=O)[C@H](C)NC1=O | 1.63 |
| CC(C)C[C@@H]1NC(=O)[C@H](CC(C)C)NC(=O)[C@@H](C(C)C)NC(=O)[C@H](C(C)C)NC(=O)[C@H](C)NC(=O)[C@@H](CC(C)C)NC(=O)[C@H](C)NC1=O | 2.09 |
| CC(C)C[C@@H]1NC(=O)[C@@H](C)NC(=O)[C@@H](CC(C)C)NC(=O)[C@@H](C(C)C)NC(=O)[C@H](C(C)C)NC(=O)[C@H](CC(C)C)NC(=O)[C@@H](CC(C)C)NC1=O | 2.6 |
| CC(C)C[C@@H]1NC(=O)[C@H](Cc2cscn2)NC(=O)[C@H](C)NC(=O)[C@H](CCC(=O)N2CCCC2)NC(=O)[C@@H](CCC(=O)N2CCCC2)NC(=O)[C@H](CC(C)C)NC(=O)[C@@H](CC(C)C)NC1=O | 1.64 |
| CC(C)C[C@@H]1NC(=O)[C@H](C)NC(=O)[C@@H](CC(C)C)NC(=O)[C@@H](CC(C)C)NC(=O)[C@@H](Cc2cscn2)NC(=O)[C@H](CC(C)C)NC(=O)[C@@H](CC(C)C)NC1=O | 2.27 |

A few entries again (block 3):
| Compound | log2 fold change |
| --- | --- |
| CCn1cc(C(=O)O)c(=O)c2ccc(C)nc21 | 0.31 |
| Cc1nc2ccc(CN(C)c3ccc(C(=O)N[C@@H](CCC(=O)O)C(=O)O)s3)cc2c(=O)[nH]1 | 0.32 |
| Cc1ccc(N(CC2=NCCN2)c2cccc(O)c2)cc1 | 0.26 |
| C=C1/C(=C\C=C2/CCC[C@]3(C)[C@@H]([C@H](C)/C=C/[C@@H](O)C4CC4)CC[C@@H]23)C[C@@H](O)C[C@@H]1O | 0.31 |
| C[C@@H]1C[C@H]2[C@@H]3CCC4=CC(=O)C=C[C@]4(C)[C@@]3(F)[C@@H](O)C[C@]2(C)[C@H]1C(=O)CO | -0.11 |
